Measured values from different studies.
Parts stem from different laboratories: compare values within a part only.

Study 1
Target: Prothrombin, mature alpha-thrombin (F2, Homo sapiens, UniProt P00734)
Technique: aptamer microarray, sandwich
Form: DNA with 2'F-ANA
Matrix: in vitro
Tested at: 200 nM
Setting: whole 15-mer aptamer, many near background
With: Cy3 exosite-II aptamer, 400 nM
Direction: higher = stronger binding
Sequence: GGTTGGTGTGGTTGG
| Modification | mean fluorescence intensity [a.u.] |
| --- | --- |
| 2'F-ANA at 4 5 7 14 | 43 |
| 2'F-ANA at 2 4 6 7 8 9 10 12 13 15 | 82.8 |
| 2'F-ANA at 1 3 6 7 10 11 12 13 | 93.3 |
| 2'F-ANA at 3 5 7 8 9 10 | 58.6 |
| 2'F-ANA at 1 2 3 7 8 11 12 13 15 | 321 |
| 2'F-ANA at 1 3 4 9 10 12 15 | 84.4 |
| 2'F-ANA at 3 5 11 12 15 | 197 |
| 2'F-ANA at 1 3 4 5 7 8 11 13 15 | 57 |
| 2'F-ANA at 2 4 7 8 13 | 305 |
| 2'F-ANA at 2 3 7 8 9 10 12 13 14 | 309 |
| 2'F-ANA at 2 3 4 5 6 7 8 10 11 13 14 15 | 48.7 |
| 2'F-ANA at 1 4 5 6 7 11 12 14 15 | 46.6 |

Study 2
Target: RNA binding protein fox-1 homolog 2, RRM domain, GST-SBP tag (RBFOX2, Homo sapiens, UniProt O43251-10, residues 100-194)
Technique: RNA Bind-n-Seq
Form: RNA
Matrix: in vitro
Tested at: 365 nM
Setting: natural RNA segment, single round, ends assumed
Baseline: no-protein control
Direction: higher = stronger binding
Target sequence (chain): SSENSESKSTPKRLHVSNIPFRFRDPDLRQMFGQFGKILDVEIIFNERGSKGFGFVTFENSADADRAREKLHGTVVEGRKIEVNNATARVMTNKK
| Sequence | RBNS enrichment (R) |
| --- | --- |
| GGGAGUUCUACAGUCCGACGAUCAAAUUUUAAAAAUCUAAGCAGCUUAUUGUUUCUCUGAAAGUGUGUGUAGUUUUACUUUCCUAAGGAAUUACCAAGAAUAUCCUUUAAAAUUUAAAAGGAUGGCAAGUUGCUGGAAUUCUCGGGUGCCAA | 1.38 |
| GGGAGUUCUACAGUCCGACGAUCCUUCAAAUAAUGAUCAAUGCUAUUUCAGUGAGCAAACUGUGAAAGGGGCUUUGGAAAGAGUAGGAGGGGUGGGCUGGAUCGGAAGCAACACCCAUUUGGGGUUACCAUGUUGGAAUUCUCGGGUGCCAA | 0.448 |
| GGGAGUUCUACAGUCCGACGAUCAGAAAGAAUCCCCUGAACUUUUCAAGGGGUUUAUAUGGUAGCACCAAAUGGAGAAUGAGCAUCUAAAAAUGACACAUCCCGAAAGGGCAAUCUGUGGAAGUUUGUUGUUUUGGAAUUCUCGGGUGCCAA | 0.429 |
| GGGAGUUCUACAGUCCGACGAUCGAGUUUGAAGAUUUUUCUUCUAGACAUCUCAAAAUGUGGUACUCAUACCAUCCACAUCAGAAUCCCUUGUAGGAUUUUCUAAAAUUACAGAUUGUUGAGCCUACCAUAGGUGGAAUUCUCGGGUGCCAA | 0.301 |
| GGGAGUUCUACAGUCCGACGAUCCAUCUGCCAUGCCCUAGCCACUAGAGUCUGGGUUCCAGCAGCUACCUGGGGACAUGUGGCUGCUCUAUUGUCUUACUGCGUCCCACAAUAUCUGAAUGUCUCAAUCCAAAUGGAAUUCUCGGGUGCCAA | 0.504 |
| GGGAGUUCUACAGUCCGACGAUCCACUGUCUCCAUGUGAUUGUUACAAGCGUUUGUGCAGUUCUACUACAAUGAUAUCUGUAUGUCACUGUAAUGUUGGCCUUCGUGGGGAACCACACUUGGUGGAGCCCGAUUGGAAUUCUCGGGUGCCAA | 0.318 |
| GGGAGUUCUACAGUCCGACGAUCACUCCCACCUGUACAUACAUUGUAUAGGCCACCUGUACAUAUCCCAGAGAACAAUCACUAUUCUUAAGCACUUUGAAGAUAUUUCUAUGUAAAUUAUUGUAAACUUUUUCUGGAAUUCUCGGGUGCCAA | 0.375 |
| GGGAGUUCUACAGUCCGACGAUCAGAUGAAAAUGCUGAGUUCUGAGAGAGUUCCAAUGAGGAGCUGCCUUUCAGCUUUGGAAAAUAUGCAACUAAAACAAAACCAAACAUUAUUGUAAUCUGACACAGGCAAAUGGAAUUCUCGGGUGCCAA | 1.14 |
| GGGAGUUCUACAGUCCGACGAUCUCAUGUGUCUGUGAAGAAUUGUACUUUAAGUGUGUGUCCUCUGAGGUGCUUGAGAAAGUGUACACUGCAGAACUGCCCAUUCUCAUUACUGUGUCCUAUUUUAUUCAUGCUGGAAUUCUCGGGUGCCAA | 0.788 |
| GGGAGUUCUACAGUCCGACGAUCCAAUUGUAUUGAAUCACAUAAUGAUUCAUAAGUAACUAGGGAACCAACUGAUUUUGCUAAGCAGUCUUCCCCUUAUAACACCACAGGCCCUUCUGACACACAAAAAAAUGUGGAAUUCUCGGGUGCCAA | 0.333 |
| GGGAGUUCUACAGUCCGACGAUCAGCAAGCUUAAAUUACAGAAGCAACUAUCCUGUCGAAAUGUCGUAAUACAGUCCAGCUGAAAGUAGGAAAUGACUGACCUGUAGGGUUAUAGGGUCCCUGAAUCACUGAUUGGAAUUCUCGGGUGCCAA | 0.482 |
| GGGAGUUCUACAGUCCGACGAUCAAAAGUUUAUUCCAUUUAUUUUAGUUUGUGUUUACUUGAUUUUGAGGAAGAAAAUAUUUGACUUUGUGUAAAGAGUAGGGUAUCAGGGUGUCUUUUCUGCCGUGGGAGAUUGGAAUUCUCGGGUGCCAA | 0.656 |

Study 3
Target: RING finger protein unkempt homolog, zinc fingers 1-6, GST-SBP tag (UNK, Homo sapiens, UniProt Q9C0B0, residues 30-357)
Chain of UniProt Q9C0B0 (30-357, looked up): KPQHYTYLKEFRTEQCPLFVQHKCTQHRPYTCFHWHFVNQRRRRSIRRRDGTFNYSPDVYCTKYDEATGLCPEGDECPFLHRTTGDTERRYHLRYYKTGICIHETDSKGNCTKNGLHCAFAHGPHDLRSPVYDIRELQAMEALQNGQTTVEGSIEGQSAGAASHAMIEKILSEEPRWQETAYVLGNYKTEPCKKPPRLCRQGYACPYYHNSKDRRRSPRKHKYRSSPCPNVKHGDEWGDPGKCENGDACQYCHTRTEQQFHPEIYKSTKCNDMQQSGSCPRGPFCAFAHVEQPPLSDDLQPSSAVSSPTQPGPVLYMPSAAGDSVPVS
Technique: RNA Bind-n-Seq
Form: RNA
Matrix: in vitro
Tested at: not given
Setting: RNA with constant flanks, ends assumed
Baseline: input RNA pool
Direction: higher = stronger binding
| Sequence | bound/input enrichment |
| --- | --- |
| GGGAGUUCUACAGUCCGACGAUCCUGAGGGCUCCAUGCUGAAGGCUCCCAUUUUCAGUUCCCUCCUGCCCAGGACUGCAUUGUUUUCCCGCCCCGAGGUGGUGGCACGGGCCCUCCCUCCCAGCGCUCUGGGAGCCACGCCUACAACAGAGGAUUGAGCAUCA | 0.376 ratio |
| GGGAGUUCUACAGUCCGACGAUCGAUCUCGGUGGGCAUGAGCAAGCACGUCGCGUUUGGAAAAAUUAUCUCCCAGCGAUUAAUGGCACCGUUUUUCUGGUGGACUGUGCGGAUCAUUCUCGUCUCAUGGAAUCCAAAGUUGAGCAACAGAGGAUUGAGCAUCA | 0.165 ratio |
| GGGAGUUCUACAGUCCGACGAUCGAGAUUGUCUUCCAGGGCUAGCAAUUGGACUUUUGAUGAUGUUUGACCCAGCGGCAGGAACCGCAGGCAACGUGAUUUCAAAGCUGGGCUCAGCCUCUGUUUCUUCUCUCGUGUAAUCGCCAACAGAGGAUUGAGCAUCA | 0.268 ratio |
| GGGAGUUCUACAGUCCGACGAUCUGCUUCCAAACACUGACAGGGAUCAAGUUUGUGGUCCUGGCAGACCCUAGGCAAGCUGGAACCGAUUCUCUUCUCCGAAAAAUUUAUGAAAUUUACUCAGACUUUGCCCUCAAGAAUCCACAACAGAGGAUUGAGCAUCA | 1.32 ratio |
| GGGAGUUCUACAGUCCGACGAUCUCCUGUGUUAGGGGGGGUCUGGCUUUUUCUGGAGGUAACUAGGGUGAUGAAAACGUAUCCUCCGGCGUGGUUAUGGCCGUCUUGGCCACCUGUACACCACUUGCCAAUGCAAGGACUUGUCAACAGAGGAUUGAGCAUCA | 0.961 ratio |
| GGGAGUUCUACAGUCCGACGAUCGAUAAAGAUCCCAACAAGAAGAUGAAACGAAACUUAAGGAAAAUUCUAGAUAGUAAAGCAACCGACCUUAUGAAUGCACUAAUGAGAUUAAAUCAGAUCAGGCCCGGGCUUCAGUAUAAGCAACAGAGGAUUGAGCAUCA | 0.853 ratio |
| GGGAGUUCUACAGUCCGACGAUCGAUUUUGAGACGGAGCACAAAUUGGACCCUGUAUUUGAUUCUCCACGGAUGUCCCGCCGCCGUUUGCGCCUGGCCACGACAGCAUGCACCCUGGGGGAUGGUGAGGCUGUGGGUGCCGACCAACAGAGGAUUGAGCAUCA | 0.223 ratio |

Study 4
Target: Interferon regulatory factor 3, full length, phosphomimetic (IRF3, Homo sapiens, UniProt Q14653, residues 1-427, S386D/S396D/S398D/S402D/T404D/S405D)
Technique: protein-binding microarray
Form: double-stranded DNA, one strand shown
Matrix: in vitro
Tested at: 2540 nM top
Setting: 60-bp whole probe
With: salmon DNA 0.4 mg/ml
Baseline: random background probes
Direction: higher = stronger binding
All sequences stand within: GCCTAGCAC … GTCTTGATTCGCTTGACGCTGCTG
Construct (chain): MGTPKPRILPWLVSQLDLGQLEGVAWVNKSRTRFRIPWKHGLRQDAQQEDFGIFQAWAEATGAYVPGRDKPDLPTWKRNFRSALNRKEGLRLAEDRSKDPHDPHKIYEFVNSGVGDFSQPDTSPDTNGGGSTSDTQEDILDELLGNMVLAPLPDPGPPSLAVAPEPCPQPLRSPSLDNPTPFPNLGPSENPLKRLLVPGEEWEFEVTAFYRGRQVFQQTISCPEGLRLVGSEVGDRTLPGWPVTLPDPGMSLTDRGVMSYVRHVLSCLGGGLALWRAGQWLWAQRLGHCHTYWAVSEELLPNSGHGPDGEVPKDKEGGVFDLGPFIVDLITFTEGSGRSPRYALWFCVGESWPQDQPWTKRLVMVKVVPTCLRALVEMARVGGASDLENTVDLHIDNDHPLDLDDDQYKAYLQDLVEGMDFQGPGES
| Sequence | fitted relative affinity [z-score] |
| --- | --- |
| TTAGGACTGCTACCGCTTTAGTGCTAG | -0.677 |
| TCATTTTCGTTTTTATTACTGTGCTAG | 6.5 |
| TTAGATTTCGAGACTGGATTAGTGCTA | 0.85 |
| GACGGTATTGGTTTCGGGACGTGCTAG | 3.86 |
| GACGATTTCAGTCTAGAGACGTGCTAG | 1.75 |
| GACGGTGTCCTTATCCTGACGTGCTAG | 2.52 |
| TGCTGTCTCAGAGTCCTCTGGTGCTAG | -0.294 |
| TTAGGTATCCTTGTCCTTTAGTGCTAG | 2.78 |
| TTAGATATCGGGTATTGATTAGTGCTA | -0.0296 |
| TCACGTGTTTTTCTCCTACTGTGCTAG | 0.429 |
| GACGGTATAGGTTTCGGGACGTGCTAG | 2.53 |
| GACGATATCGGGTTTCGAGATGTGCTA | 1.23 |
| TTCGATTTCGGGTATCGATTAGTGCTA | 2.38 |
| GACGGACTGGGCTTTCGGGACGTGCTA | -0.561 |
